Assay results collected from several papers.
Protocols differ between the studies behind these lines. “And” joins repeats or separate records; there may be more than shown. ± marks the error that the study gave.
Nuclear receptor subfamily 2 group C member 2 ligand-binding domain: Nuclear receptor subfamily 2 group C member 2, ligand-binding domain (Homo sapiens, UniProt P49116)
T1: ssDNA, aptamer; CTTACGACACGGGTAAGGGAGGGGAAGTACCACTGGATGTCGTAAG

SMILES = COC(=O)c1cn(C)c2ccc(-c3cccnc3)cc12; target or system = COS-7; conditions = 10 µM, 24 h, 0.1% DMSO, unit not given; scale = reference: vehicle control; measurement = apoptotic cells; result = 0.64 ± 0.17
SMILES = CC1Cc2ccccc2N1C(=O)NCCCCN(C)[C@@H]1Cc2cccc3[nH]c(=O)n(c23)C1 (mixture of isomers); target or system = HTR1A (Homo sapiens, UniProt P08908); assay = binding; conditions = with: [3H]8-OH-DPAT; measurement = Hill coefficient; result = -0.48 ± 0.01
SMILES = CC(NC(=O)CCCc1ccc2ccc3cccc4ccc1c2c34)C(=O)NO (centres unmarked); target or system = HDAC8 (Homo sapiens, UniProt Q9BY41); assay = ITC; system = phosphate buffer; conditions = pH 7.5; measurement = TΔS; result = 6.2 kcal/mol
SMILES = CCC(=O)N1CCOc2c(cc(-c3ccc(OC)c(OC)c3)cc2OC[C@H]2CCCN(C)C2)C1; target or system = OCI-Ly1; conditions = 1 µM, 120 h; measurement = viability; result = 82.6%
SMILES = O=S(=O)(O)O; target or system = GUK1 (Homo sapiens, UniProt Q16774); assay = enzyme activity, NADH-coupled; conditions = 5 mM, with: ATP 500 µM; measurement = reaction velocity; result = 0.0964 µM/s and 0.112 µM/s and 0.0809 µM/s
SMILES = COc1ccccc1N1CCN(CC(O)COc2cccc3ccccc23)CC1 (centres unmarked); target or system = Nuclear receptor subfamily 2 group C member 2 ligand-binding domain; assay = SPR imaging; conditions = 600 nM; measurement = koff; result = 1.05e-07 s⁻¹
SMILES = O=C(COP(=O)(O)O)[C@@H](O)[C@H](O)[C@H](O)COP(=O)(O)O; target or system = Small ribosomal subunit protein uS11 (Homo sapiens, UniProt P62263); assay = thermal proteome profiling, refers to: RPS14; system = HepG2 cell lysate; conditions = concentration not given, 57 over 37 °C, mean; scale = reference: compound over control; measurement = thermal stability ratio; result = 0.662
SMILES = COc1c(O[C@@H]2O[C@H](CO)[C@@H](O)[C@H](O)[C@H]2O)c(C)cc2c1C(=O)c1c(O)cccc1C2=O; target or system = HepaRG co-cultured with HK-2; assay = MTT; conditions = 16.67 µM, 24 h; scale = reference: untreated control; measurement = cell viability; result = 74.7 ± 6.24%
SMILES = C=CC(=O)N1CCC(C(=O)NCC(=O)N2CCN(c3nc(-c4cnc(N)nc4C(F)F)nc(N4CCOCC4)n3)CC2)CC1; target or system = EGFR (Homo sapiens, UniProt P00533, G719S); assay = KINOMEscan; conditions = 1 µM; measurement = remaining binding; result = 97%
SMILES = OCC(CO)N[C@H]1C[C@](O)(CO)[C@@H](O)[C@H](O)[C@H]1O; target or system = Nuclear receptor subfamily 2 group C member 2 ligand-binding domain; assay = SPR imaging; conditions = 600 nM; measurement = koff; result = 1.49e-07 s⁻¹
SMILES = CC1CCCN(C(=O)c2cc3ncccn3n2)C1 (centres unmarked); target or system = F-box only protein 22, with SKP1 (Homo sapiens, UniProt Q8NEZ5); assay = binding, affinity selection mass spectrometry; scale = reference: other proteins in batch; measurement = fold enrichment; result = 0.815
SMILES = O=Cc1ccc(-n2cncn2)cc1; target or system = YWHAG/RELA, phospho-Ser45 p65 peptide (Homo sapiens, UniProt P61981+Q04206); assay = ternary complex formation, stabilizer, fluorescence anisotropy; measurement = EC50; result = > 1000 µM
SMILES = N#Cc1ccc(Cn2cncc2CN2CCN(c3cccc(OC(F)(F)F)c3)C(=O)C2)cc1F; target or system = Cryptococcus neoformans farnesyltransferase; assay = enzyme activity, inhibitor, fluorescence; conditions = with: 1 µM FPP, 0.5 µM dansylated peptide; measurement = IC50; result = 0.12 ± 0.04 µM
SMILES = Nc1ncnc2c1ncn2[C@@H]1O[C@H](COP(=O)(O)OP(=O)(O)OP(=O)(O)O)[C@@H](O)[C@H]1O; target or system = T1, ssDNA, aptamer; assay = ITC; measurement = Kd; result = 0.791 µM
SMILES = Cc1cc(Nc2nn(-c3ccccc3)c(=O)c3ccccc23)n[nH]1; target or system = OCI-Ly1; conditions = 1 µM, 120 h; measurement = viability; result = 21.2%
SMILES = NCCCC(=O)O; target or system = SLC6A6 (Homo sapiens, UniProt P31641, Y138A); assay = binding, microscale thermophoresis; conditions = 125 µM, room temperature, with: 50 nM labelled protein; scale = higher = more binding; measurement = normalised MST signal; result = 0.0105
SMILES = CC(C)C[C@@H]1NC(=O)CNC(=O)[C@H](CC(C)C)NC(=O)[C@@H]2CCCN2C(=O)[C@H](CC(=O)O)NC(=O)[C@H](Cc2ccc(O)cc2)NC(=O)CNC(=O)[C@@H](Cc2ccc(O)cc2)NC(=O)CSC[C@@H](C(N)=O)NC(=O)[C@H](C)NC(=O)[C@H](Cc2ccccc2)NC(=O)[C@H](Cc2ccc(O)cc2)NC(=O)[C@H](CCCCN)NC1=O; target or system = VPS35/VPS29 (Homo sapiens, UniProt Q96QK1+Q9UBQ0); assay = binding, isothermal titration calorimetry; conditions = 25 °C; measurement = ΔH; result = -11.6 ± 1.3 kcal/mol
SMILES = CC[C@H](C)[C@H](NC(=O)[C@H](CCC(=O)O)NC(=O)[C@H](CCC(=O)O)NC(=O)[C@@H]1CCCN1C(=O)[C@H](CC(=O)O)NC(=O)[C@H](C)NC(=O)[C@H](CCC(N)=O)NC(=O)[C@@H](NC(=O)[C@H](C)NC(=O)[C@@H](NC(=O)[C@H](CO)NC(=O)[C@@H](NC(=O)[C@H](CCCCN)NC(=O)[C@@H](N)Cc1ccc(O)cc1)[C@@H](C)O)C(C)C)[C@@H](C)O)C(=O)N[C@H](C(=O)N[C@H](C(=O)N[C@@H](CC(C)C)C(=O)N[C@@H](CC(=O)O)C(=O)N[C@@H](CC(=O)O)C(=O)N[C@@H](CC(=O)O)C(=O)N[C@@H](CC(=O)O)C(=O)O)C(C)C)[C@@H](C)CC; target or system = Small ubiquitin-related modifier 1, residues 17-97 (Homo sapiens, UniProt P63165, C52A); assay = isothermal titration calorimetry; conditions = pH 7.4, N-terminally truncated SUMO1; measurement = -TΔS; result = -13.4 ± 0.1 kcal/mol
SMILES = CCN1CCC[C@H]1CNC(=O)c1c(O)c(Cl)cc(Cl)c1OC; target or system = Mas-related G-protein coupled receptor member G (MRGPRG, Homo sapiens, UniProt Q86SM5); assay = β-arrestin recruitment, TANGO luminescence, refers to: MRGPRG; conditions = concentration not given; scale = reference: basal luminescence; measurement = log2 fold change; result = -0.00537
SMILES = C[S+](CC[C@H](N)C(=O)O)C[C@H]1O[C@@H](n2cnc3c(N)ncnc32)[C@H](O)[C@@H]1O (some centres unmarked); target or system = O-methyltransferase (Sorghum bicolor, UniProt A0A1B6PFV1); assay = biolayer interferometry; conditions = with: saturating PTR; measurement = cooperativity factor σ; result = 0.81
